Published values of several laboratories.
Each numbered part is a random draw from the data of one study; scales do not carry over between parts.
Chain of UniProt P11388 (whole entry, looked up): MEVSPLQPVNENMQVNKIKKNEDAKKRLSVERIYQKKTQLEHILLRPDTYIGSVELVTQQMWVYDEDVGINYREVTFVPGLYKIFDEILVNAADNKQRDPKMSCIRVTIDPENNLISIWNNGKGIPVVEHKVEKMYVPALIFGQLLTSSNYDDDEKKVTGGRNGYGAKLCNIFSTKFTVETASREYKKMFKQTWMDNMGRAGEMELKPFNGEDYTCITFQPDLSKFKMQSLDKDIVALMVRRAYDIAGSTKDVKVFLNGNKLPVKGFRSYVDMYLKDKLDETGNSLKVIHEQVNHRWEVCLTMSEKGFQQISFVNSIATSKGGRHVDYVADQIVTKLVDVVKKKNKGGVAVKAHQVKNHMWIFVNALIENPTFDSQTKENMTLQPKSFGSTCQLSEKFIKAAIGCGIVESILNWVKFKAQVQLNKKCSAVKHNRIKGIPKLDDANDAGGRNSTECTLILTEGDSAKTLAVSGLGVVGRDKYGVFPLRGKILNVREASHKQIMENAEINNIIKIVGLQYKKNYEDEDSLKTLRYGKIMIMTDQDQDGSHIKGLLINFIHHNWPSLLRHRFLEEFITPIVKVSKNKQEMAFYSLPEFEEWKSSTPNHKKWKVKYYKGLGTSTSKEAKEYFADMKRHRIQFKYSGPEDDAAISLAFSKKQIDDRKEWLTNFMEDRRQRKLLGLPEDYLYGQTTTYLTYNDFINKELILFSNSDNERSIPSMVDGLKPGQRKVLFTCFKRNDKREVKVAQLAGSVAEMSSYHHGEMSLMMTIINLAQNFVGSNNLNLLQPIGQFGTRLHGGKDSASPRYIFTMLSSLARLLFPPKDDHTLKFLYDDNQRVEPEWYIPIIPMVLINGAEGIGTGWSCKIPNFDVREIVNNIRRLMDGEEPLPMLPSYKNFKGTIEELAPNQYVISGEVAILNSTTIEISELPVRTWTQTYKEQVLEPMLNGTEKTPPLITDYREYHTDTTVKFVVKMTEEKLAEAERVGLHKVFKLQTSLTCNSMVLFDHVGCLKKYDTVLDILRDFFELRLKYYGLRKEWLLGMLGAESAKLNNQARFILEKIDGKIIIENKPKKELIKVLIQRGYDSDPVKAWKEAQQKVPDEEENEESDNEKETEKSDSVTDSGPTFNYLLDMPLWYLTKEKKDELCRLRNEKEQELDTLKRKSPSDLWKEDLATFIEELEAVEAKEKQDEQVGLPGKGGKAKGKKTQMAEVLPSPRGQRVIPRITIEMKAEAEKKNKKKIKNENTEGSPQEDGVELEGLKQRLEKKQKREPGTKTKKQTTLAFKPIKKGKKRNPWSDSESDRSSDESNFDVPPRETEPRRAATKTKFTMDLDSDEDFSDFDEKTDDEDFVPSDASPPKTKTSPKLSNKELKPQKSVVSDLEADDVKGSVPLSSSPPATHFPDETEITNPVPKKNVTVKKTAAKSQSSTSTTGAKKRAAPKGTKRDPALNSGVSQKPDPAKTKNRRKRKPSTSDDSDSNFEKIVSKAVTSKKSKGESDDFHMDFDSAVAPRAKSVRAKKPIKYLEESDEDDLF

Sample 1
SMILES: Fc1ccccc1Cc1nc(-c2nc(C(F)(F)F)n[nH]2)cn2ccnc12
Host: healthy volunteers
Notes: single ascending dose
Reference: placebo
| conditions | smooth pursuit eye movements |
| --- | --- |
| 10 mg | -1.38% |
| 20 mg | -0.64% |
| 0.3 mg | -0.97% |
| 3 mg | -2.76% |

Other studies, line by line
B1: enzyme (Listeria monocytogenes, UniProt Q8Y7B6); chain MSFDVLTINPGSTSTKLAVYQGDKVLFEETVRHTMQELADFNNVQEQFDFRWQVLRRVMDAHGYDVKKLQAVVGRGGLLRPVAGGTYMVTEKMIDDLKENKYGEHASNLGAMLAKKLADELTIPSFIVDPVVVDEMQEIARISGNAFVTRKSIFHALNHKAAGRKIAKELGKDYEKMNFVIAHLGGGISVAAHRQGKAVDVNNALDGDGPFSPERSGSLPMNDFLEACFSGKWTKRELHELIVGRGGMISYLGTNSMLEVEAKVQAGEEKAIEAFDAMAYQVSKEIGACSVVLQGKVDAIILTGGLARSELFTSKIIEQTNWITSVIIEPGEDELEALNSGVQRVLAGLEKEKEY
| Molecule | target or system | assay | test system | conditions | scale | measurement | value |
| --- | --- | --- | --- | --- | --- | --- | --- |
| COc1cc([C@@H]2c3cc4c(cc3[C@@H](O[C@@H]3O[C@@H]5CO[C@@H](C)O[C@H]5[C@H](O)[C@H]3O)[C@H]3COC(=O)[C@H]23)OCO4)cc(OC)c1O | TOP2A (Homo sapiens, UniProt P11388) | DNA decatenation, gel-based decatenation | – | 7.8 µM | – | inhibition | 90.3% |
| N#CCC1CCN(c2nc(Nc3ccc(N4CCC(O)CC4)cc3)c3c(=O)[nH]ncc3n2)CC1 | – | vs placebo, Olink multiplex | human, serum | 40 mg, day 29, unit not given | reference: placebo | osteopontin level difference | -1.19 |
| COC(=O)Nc1c(N)nc(-c2nn(Cc3ccccc3F)c3ncc(F)cc23)nc1N | – | – | humans, plasma | 10 mg once daily, 0 to 24 h, phase I DDI study, without warfarin | – | AUC(0-tau) at steady state | 5.18 µg·h/mL |
| B1 (enzyme) | CCC(CC)C(=O)O | steady-state kinetics | – | pH 7.5, 37 °C | – | Km | 16.5 mM |

Repeated from above (sample 1):
| conditions | smooth pursuit eye movements |
| --- | --- |
| 3 mg | -2.76% |
